Published values from different studies.
Each numbered part is a random draw from the data of one study; scales do not carry over between parts.

Sample 1
Target: RNA binding protein fox-1 homolog 2, RRM domain, GST-SBP tag (RBFOX2, Homo sapiens, UniProt O43251-10, residues 100-194)
Method: RNA Bind-n-Seq
Form: RNA
Matrix: in vitro
Concentration: 365 nM
Notes: natural RNA segment, single round, ends assumed
Baseline: no-protein control
Direction: higher = stronger binding
Measurement: RBNS enrichment (R)
Constant ends, left off below: GGGAGUUCUACAGUCCGACGAUC … UGGAAUUCUCGGGUGCCAA
Residues (chain): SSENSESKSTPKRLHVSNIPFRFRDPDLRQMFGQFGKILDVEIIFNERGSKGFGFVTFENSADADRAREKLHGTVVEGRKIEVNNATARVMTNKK
UGGACUACCUGAUCAAUGGCAUGUAUGCCGACUCAGAGAUUGAGGGCUUCUCGGGAGGCCAGCCUCUACCAUGGCCGCCUGUUUUGCCUCAGACCAAACUAAGUGCUUCC: 0.247
GGCACUUUAGAUAAGCCUUUUUAAAAUUCUUUCUGAUUUUAAAUAAUGCGUCAAAAAAUGUGCAGAAAAUGUAUUGCAUCCCUUGAUACUGUCUAACGAAUAGCACAUAA: 1.35
AAAAAAGAUGGAUUUCUGCUGUCUUUUGGCCCCUAGUUCCUUGGAAGGGCAAAGGCUAUGAGGUAGAGGGAGGUGACAGGCAUUGCAGGUGGCAGACUGACUUUGGACAG: 0.887
GCCCUCCACUUUAUCCCAUAUUUUUGCUGUCAAAUUCUUAGUCUAGAGGAGACUGAGCUAACUUCAGCUUGCUUGCUUGCUUGCUUGCUUGCUUGCUUGCUUGCUUGCCC: 1.55
UUUUAGUACUGAACUCCUGUGCCCUUCUUUUUUAAAAAGGUCUUCCCUCAUUUUGUAUAUUUAGCCAGAUACAGAAAGCUCACAUCCUGAAGGAAACAUGACCAUUCUGA: 0.532
GAGUUUUAAAGUCUGAGUAUUUCAAAUUAUCAGUGUUGCUUUGUGAAGAUAUGUGUGUGUGUAUAUUCAACUUUGAUGGCUUCCGGAUCUGUAAGAUUGUAUGCUGUAUA: 22.8
UCUUUGUUCUCCCUCACUCUGCCCUUAGUUAAUAGAAAUUCAGACUCGCCAAGUAAGGCUUCGUGCAUAGUGUCUUCAUGUCGCGUAUAGUUGAGCGCGUUCUUAGCAGU: 0.797
UCCACUACCAUUGUAGAUCCCCUUUCACUAAAUAUAAGACAUGCUAGCUAGCCUGGCUCAGUGAGCUGAUUAGCGUAUGGCAGGGGGCCUAGGAAGUACAGAGCAUCCUG: 0.434
GUUAGAAGAAAACAAUCACAAAACUGAAGCCUAGAGAGAAACUGUCCUAGUUGUCCAGGGAUAAAAAUCAUAUAGACCAAUUGAAGCAUGAACGUGGAUUGUAUUUAAGA: 9.86
AUAAUAUAGAGUGAAAGUUAACAUACUAACAUUUCUCCUUUGGAGGAAGUUUUAAUCCACUUCAGGAUGCAUAUUAGCAAGAUACUUUCAUAUACAGGAUAGCCUAAUUU: 0.242
UUGUAAAACCAAUGUCUGUUUUGUUACAUACCUUUCAUGUUGUGCUUUGUAAAUGUCUUAUUUGUGUAAUAAAUAAAGUUAAUGCGAGUAGAAGUGCCGGCACUUAAACC: 4.01
CCUCAGCUGUUCCUUGCUGGUAUACCUCAGAAGUGGAAUGUCAGAGUGGGCUACUAGAGACCUCUGACCCCAGCAGCACUGGCUUGCCCUCAUAUGUGGGGUGUAGUCAC: 0.328

Sample 2
Target: RING finger protein unkempt homolog, zinc fingers 1-6, SBP tag (UNK, Homo sapiens, UniProt Q9C0B0, residues 30-357)
Chain of UniProt Q9C0B0 (30-357, looked up): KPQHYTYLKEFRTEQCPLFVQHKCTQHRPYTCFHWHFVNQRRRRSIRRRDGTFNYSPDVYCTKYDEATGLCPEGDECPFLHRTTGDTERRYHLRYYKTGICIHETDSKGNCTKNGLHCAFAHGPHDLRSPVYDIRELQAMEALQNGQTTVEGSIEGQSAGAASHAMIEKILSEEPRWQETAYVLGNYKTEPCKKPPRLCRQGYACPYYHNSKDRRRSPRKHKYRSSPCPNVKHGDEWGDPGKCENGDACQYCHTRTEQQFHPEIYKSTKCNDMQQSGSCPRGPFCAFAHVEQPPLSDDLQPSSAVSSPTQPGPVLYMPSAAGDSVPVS
Method: RNA Bind-n-Seq
Form: RNA
Matrix: in vitro
Concentration: 100 nM
Notes: RNA with constant flanks, vertebrate orthologous sites, ends assumed
Baseline: input RNA pool
Direction: higher = stronger binding
Measurement: bound/input enrichment
Constant ends, left off below: GGGAGUUCUACAGUCCGACGAUC … CAACAGAGGAUUGAGCAUCA
CAUUGUAGUAAUGAAAAUGAUCUUAAUUCUGCACGACCCACAGUAAUAACUAGUUUACAUUAGCAGAAUCGUUUACUUUCACUUUUUAAAUUAUCUGCUUUUUCUGCUGCCUGAACCCAA: 1.29 ratio
AGCAACUCAAGGAUUGAGGACUGGUUUUACAAAUAUACCAAGUAGAUAUGGAACUAAUAAUAGAAUUGGACAACCAAGACCAUGAUAGACUCUAACUUAUUUUUAUGAGGAAUAUUGACU: 0.406 ratio
GUUGGGUCAUGACCCCUAUAGGUUAGGCCAUGAUGCUUACAGGUUAGGACAGGACCCCUACAGAUUAGGCCAUGAUCCCUACAGACUAACUCCUGAUCCCUAUAGGAUGUCACCCAGACC: 0.614 ratio
AAAUUUAUUUCAUGCCCUGGACUCCCUAUCGUACUGAUACUUUAACAGAAUAUGCUUCCUUAGAAGAUUUCCAAAAUAGUCGCCAAACGACGACAUACAAACUUCCAAAUCGAGUAGAUG: 0.752 ratio
UGCAUUUUGCAUCUUGGAUGUGGUCUGCGCGAGGAAGCUGCUGGCCCCUCCACAACAACAAAUAAAACGUUUGUCAUUUUUUUAAGAUGUUAAAACGGAAUCGAAUUUACUAAAAAUGUA: 0.169 ratio
GCAAUGAAAAAGCAGCCCUUCUCCCAGCCCCCUUUUCACUAGGAGAUGCAAACGUUACCAUAGAAGAGCAAUUAAACUCAAUAAAUUUAUCUUUUCAGGAUGAUCCAGACUCCAGUACCA: 1.06 ratio
AUUUUUUAAAGUUUUUUUAAUUUAAUUUUUCCUUUUGGGGGUAAAGUUUGCUCUACCAAAUAGUGAUCGUAACAAAUUGAUCUGUUUUGGAUGUUGCUCUAGUGACAUGCAGUUAUAUAU: 0.629 ratio
UUACAAUCUUCUUAAACUGGUAUUUACGGACCAUAUGGAGCUUUUUUUUUUUUUUUACAGUUUAGCAUCUGGUUUCUACAUGGAAGACGACGAACUUUCAUGCUUUAUUGUUCAAUGUGG: 0.65 ratio
AAGAACUCUUGCAGUCUUAGAUGUUAUAAAAAAUAUGUAUAUCUGAAUUGUAAGAGUUGUUAGCACAGGUUUUUUUUUUUUUUUUUUAAGCACUUGUUUUGGGUACAAGGCAUGUCUGAA: 1.1 ratio
ACUGAUUGAUUCUCAGUCUCUUCUGCCCUGUCCUGAUUUUAAAAGCCCUUUCUUUUCUUUUAGGCAUAUGUAGUAAUAGCAGAAAGAUUUAAUUUGGGCAACUUUGAUUCUUAAAAAAAC: 0.331 ratio
GGGUCGGGCUCCUUGGGGAGCUGCUGGCCACUUGGCGGCACCUGACUUAGGACAGUGACGUGAUAGGUAGGCUUGUGGUUUUUUAAUUUAAUGACAUUAAGACUUAAUCCACUAAAAUUU: 0.488 ratio

Sample 3
Target: Phosphate system positive regulatory protein PHO4, full length, GST-tagged (PHO4, Saccharomyces cerevisiae, UniProt P07270, residues 1-312)
Method: competition protein-binding microarray
Form: double-stranded DNA, one strand shown
Matrix: in vitro
Concentration: 2 µM
Notes: whole 60-bp probe, lowest competitor level
Together with: Cbf1 competitor, 0.05 µM
Direction: higher = stronger binding
Measurement: fluorescence intensity
Constant ends, left off below: … GTCTTGATTCGCTTGACGCTGCTG
Construct (chain): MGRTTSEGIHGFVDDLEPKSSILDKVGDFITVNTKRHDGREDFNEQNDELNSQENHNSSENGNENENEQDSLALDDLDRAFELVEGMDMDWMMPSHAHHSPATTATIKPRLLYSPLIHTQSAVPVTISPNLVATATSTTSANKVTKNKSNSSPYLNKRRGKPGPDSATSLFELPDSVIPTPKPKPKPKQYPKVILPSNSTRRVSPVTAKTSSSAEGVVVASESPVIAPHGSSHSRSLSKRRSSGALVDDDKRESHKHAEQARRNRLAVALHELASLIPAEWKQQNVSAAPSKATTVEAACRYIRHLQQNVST
TGAAGAGTACTTACTGATGTGATATTCGACAGGATC: 2610 a.u.
CCAATTAACCAAAGCCACGTGGATTTGTCATCAGAG: 20000 a.u.
CAGAACCTGCTAAAGCACGTGATGGGAGAAAATCAA: 15500 a.u.
CATACCCAACCTTGGACGGTGGGTGAAGATATTTGT: 3560 a.u.
ATTTCTTCTGTTTCACACGTTGTGCTTGCCAGGAAT: 11800 a.u.
CTTTCCCGATCTTGGATCGTGGGTGTAGCACATTTG: 8900 a.u.
AAAGCGGTAATTTGTCACAGCACTTCACATATCTAT: 3870 a.u.
TTCCTGGTAGTCTCGCATACGTTTGTCAGTGGCATT: 4470 a.u.
TGCGCAACAACTTTTCACGTGATTTTATGTCTAGAA: 11000 a.u.
CTTTCCCGATCTTGTCACATCACTTTAGCACATTTG: 4170 a.u.
CCTGGACCTCCTGACCACGTGGTACTGCAGCTTCAA: 17600 a.u.
CGAAGCACTCTCCAACACGTGACTCGGATAACGACC: 17200 a.u.
TGCGCAACAACTTGCTCAGTGGGTGTATGTCTAGAA: 4870 a.u.
CTTTCCCGATCTTTTCACGTGACTTTAGCACATTTG: 12400 a.u.
TGGGATAATATCTTCCACGTGATGGTTGAACAACCA: 15600 a.u.
GATGGATTCAGTCCACACATGAGATTCGCAGGATGT: 5850 a.u.

Sample 4
Target: Protein max, full length (MAX, Homo sapiens, UniProt P61244-2, residues 1-151)
Method: protein-binding microarray
Form: double-stranded DNA, one strand shown
Matrix: in vitro
Concentration: not given
Notes: k-mer, scored over probes, only values ≥0.25
Direction: higher = stronger binding
Measurement: E-score
GGGCGCAC: 0.258
CGAGCCAC: 0.254
CACACACG: 0.363
GCGTGTGA: 0.365
ACGCGTCC: 0.28
CGTGCAGA: 0.347
AACGCACG: 0.388
ACATGTCA: 0.288
CCCCCTGC: 0.291
CACGTGTA: 0.496
CGTTTTCA: 0.251
CATGTTCC: 0.34
CAACGTGG: 0.462
CGCACGCG: 0.447
CCAAACAC: 0.296
GGTGTCAC: 0.287
CGTGACGA: 0.309
CCACCCGC: 0.26
ATGCAGCA: 0.257
CGTGCACA: 0.379
ACGTGTAG: 0.419
ACGTGTAA: 0.419
ACATGATA: 0.271
CCTGCACG: 0.368
CCCACGCG: 0.467

Repeated from above (sample 1):
UGGACUACCUGAUCAAUGGCAUGUAUGCCGACUCAGAGAUUGAGGGCUUCUCGGGAGGCCAGCCUCUACCAUGGCCGCCUGUUUUGCCUCAGACCAAACUAAGUGCUUCC: 0.247
GAGUUUUAAAGUCUGAGUAUUUCAAAUUAUCAGUGUUGCUUUGUGAAGAUAUGUGUGUGUGUAUAUUCAACUUUGAUGGCUUCCGGAUCUGUAAGAUUGUAUGCUGUAUA: 22.8
GCCCUCCACUUUAUCCCAUAUUUUUGCUGUCAAAUUCUUAGUCUAGAGGAGACUGAGCUAACUUCAGCUUGCUUGCUUGCUUGCUUGCUUGCUUGCUUGCUUGCUUGCCC: 1.55
AAAAAAGAUGGAUUUCUGCUGUCUUUUGGCCCCUAGUUCCUUGGAAGGGCAAAGGCUAUGAGGUAGAGGGAGGUGACAGGCAUUGCAGGUGGCAGACUGACUUUGGACAG: 0.887
